Measurements from different studies.
Compare with care: the assays were run in different laboratories. “And” joins repeats or separate records; there may be more than shown. ± marks the error that the study gave.
RIPK3: Receptor-interacting serine/threonine-protein kinase 3 (RIPK3, Homo sapiens, UniProt Q9Y572)
Sequence of UniProt Q9Y572 (whole entry, looked up): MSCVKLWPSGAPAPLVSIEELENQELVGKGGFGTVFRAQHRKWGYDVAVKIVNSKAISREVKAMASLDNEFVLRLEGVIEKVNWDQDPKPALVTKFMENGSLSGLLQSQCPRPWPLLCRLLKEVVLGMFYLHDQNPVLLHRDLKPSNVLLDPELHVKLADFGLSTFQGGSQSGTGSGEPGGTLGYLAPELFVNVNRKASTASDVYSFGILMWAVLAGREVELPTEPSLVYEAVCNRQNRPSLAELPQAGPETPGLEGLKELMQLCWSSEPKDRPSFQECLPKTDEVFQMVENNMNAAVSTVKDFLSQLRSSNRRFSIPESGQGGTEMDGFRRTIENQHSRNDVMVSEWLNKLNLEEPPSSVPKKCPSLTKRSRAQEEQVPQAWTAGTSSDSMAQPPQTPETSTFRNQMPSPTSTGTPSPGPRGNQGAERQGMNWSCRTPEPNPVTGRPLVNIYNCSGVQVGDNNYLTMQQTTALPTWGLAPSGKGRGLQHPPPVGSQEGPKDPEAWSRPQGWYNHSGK
Genome polyprotein NS2B-NS3 protease: Genome polyprotein, NS2B-NS3 protease (dengue virus type 2, UniProt P29990)
MDM2: E3 ubiquitin-protein ligase Mdm2 (MDM2, Homo sapiens, UniProt Q00987)
Sequence of UniProt Q00987 (whole entry, looked up): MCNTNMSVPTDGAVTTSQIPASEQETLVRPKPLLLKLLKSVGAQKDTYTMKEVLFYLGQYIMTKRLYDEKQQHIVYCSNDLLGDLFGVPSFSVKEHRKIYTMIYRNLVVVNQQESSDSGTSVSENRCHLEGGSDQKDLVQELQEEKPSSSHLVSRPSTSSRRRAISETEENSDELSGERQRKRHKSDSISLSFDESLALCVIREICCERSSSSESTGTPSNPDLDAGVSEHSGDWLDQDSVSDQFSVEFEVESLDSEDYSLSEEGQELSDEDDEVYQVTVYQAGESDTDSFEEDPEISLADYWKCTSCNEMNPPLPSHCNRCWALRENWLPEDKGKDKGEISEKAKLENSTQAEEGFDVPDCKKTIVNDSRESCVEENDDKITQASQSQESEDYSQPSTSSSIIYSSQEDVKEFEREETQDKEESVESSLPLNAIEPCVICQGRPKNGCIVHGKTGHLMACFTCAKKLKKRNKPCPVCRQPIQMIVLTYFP
SIRT5: NAD-dependent protein deacylase sirtuin-5, mitochondrial (SIRT5, Homo sapiens, UniProt Q9NXA8)
Sequence of UniProt Q9NXA8 (whole entry, looked up): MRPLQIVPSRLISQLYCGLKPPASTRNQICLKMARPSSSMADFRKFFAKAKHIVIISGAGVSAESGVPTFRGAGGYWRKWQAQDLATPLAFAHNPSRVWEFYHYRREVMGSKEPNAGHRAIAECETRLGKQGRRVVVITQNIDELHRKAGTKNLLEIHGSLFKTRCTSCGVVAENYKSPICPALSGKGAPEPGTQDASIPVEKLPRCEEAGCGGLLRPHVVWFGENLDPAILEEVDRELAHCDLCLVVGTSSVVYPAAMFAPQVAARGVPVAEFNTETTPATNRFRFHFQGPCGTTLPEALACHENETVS
HDAC11: Histone deacetylase 11 (HDAC11, Homo sapiens, UniProt Q96DB2)
Sequence of UniProt Q96DB2 (whole entry, looked up): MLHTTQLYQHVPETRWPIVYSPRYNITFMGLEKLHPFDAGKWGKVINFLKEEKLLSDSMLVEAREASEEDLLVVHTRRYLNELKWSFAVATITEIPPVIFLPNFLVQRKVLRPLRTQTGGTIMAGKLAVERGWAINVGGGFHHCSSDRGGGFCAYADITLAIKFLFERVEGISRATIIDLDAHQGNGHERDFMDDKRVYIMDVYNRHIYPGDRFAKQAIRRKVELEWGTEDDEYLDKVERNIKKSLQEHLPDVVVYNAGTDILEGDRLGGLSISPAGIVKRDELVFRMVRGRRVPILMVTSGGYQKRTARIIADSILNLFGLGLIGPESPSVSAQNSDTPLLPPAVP
Apeh: Acylamino-acid-releasing enzyme (Apeh, Mus musculus, UniProt Q8R146)
Sequence of UniProt Q8R146 (whole entry, looked up): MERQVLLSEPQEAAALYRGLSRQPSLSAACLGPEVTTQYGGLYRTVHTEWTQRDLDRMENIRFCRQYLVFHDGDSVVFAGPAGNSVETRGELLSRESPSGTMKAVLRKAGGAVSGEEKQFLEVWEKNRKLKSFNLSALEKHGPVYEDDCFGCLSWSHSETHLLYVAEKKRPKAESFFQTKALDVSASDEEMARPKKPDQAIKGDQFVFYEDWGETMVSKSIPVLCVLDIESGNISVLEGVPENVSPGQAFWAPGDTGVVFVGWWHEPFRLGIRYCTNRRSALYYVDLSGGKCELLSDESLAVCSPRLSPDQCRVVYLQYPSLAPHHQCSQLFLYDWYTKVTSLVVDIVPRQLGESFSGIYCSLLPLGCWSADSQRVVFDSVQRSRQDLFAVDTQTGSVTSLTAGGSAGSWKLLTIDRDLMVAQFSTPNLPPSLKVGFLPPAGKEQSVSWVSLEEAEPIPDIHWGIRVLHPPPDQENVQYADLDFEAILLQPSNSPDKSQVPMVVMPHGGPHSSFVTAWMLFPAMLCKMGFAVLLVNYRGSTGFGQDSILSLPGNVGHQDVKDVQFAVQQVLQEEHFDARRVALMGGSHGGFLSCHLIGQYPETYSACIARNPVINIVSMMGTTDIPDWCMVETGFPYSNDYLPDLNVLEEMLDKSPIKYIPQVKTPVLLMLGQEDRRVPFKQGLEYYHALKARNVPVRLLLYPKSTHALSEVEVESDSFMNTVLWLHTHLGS
TNKS: Poly [ADP-ribose] polymerase tankyrase-1 (TNKS, Homo sapiens, UniProt O95271)
Sequence of UniProt O95271 (whole entry, looked up): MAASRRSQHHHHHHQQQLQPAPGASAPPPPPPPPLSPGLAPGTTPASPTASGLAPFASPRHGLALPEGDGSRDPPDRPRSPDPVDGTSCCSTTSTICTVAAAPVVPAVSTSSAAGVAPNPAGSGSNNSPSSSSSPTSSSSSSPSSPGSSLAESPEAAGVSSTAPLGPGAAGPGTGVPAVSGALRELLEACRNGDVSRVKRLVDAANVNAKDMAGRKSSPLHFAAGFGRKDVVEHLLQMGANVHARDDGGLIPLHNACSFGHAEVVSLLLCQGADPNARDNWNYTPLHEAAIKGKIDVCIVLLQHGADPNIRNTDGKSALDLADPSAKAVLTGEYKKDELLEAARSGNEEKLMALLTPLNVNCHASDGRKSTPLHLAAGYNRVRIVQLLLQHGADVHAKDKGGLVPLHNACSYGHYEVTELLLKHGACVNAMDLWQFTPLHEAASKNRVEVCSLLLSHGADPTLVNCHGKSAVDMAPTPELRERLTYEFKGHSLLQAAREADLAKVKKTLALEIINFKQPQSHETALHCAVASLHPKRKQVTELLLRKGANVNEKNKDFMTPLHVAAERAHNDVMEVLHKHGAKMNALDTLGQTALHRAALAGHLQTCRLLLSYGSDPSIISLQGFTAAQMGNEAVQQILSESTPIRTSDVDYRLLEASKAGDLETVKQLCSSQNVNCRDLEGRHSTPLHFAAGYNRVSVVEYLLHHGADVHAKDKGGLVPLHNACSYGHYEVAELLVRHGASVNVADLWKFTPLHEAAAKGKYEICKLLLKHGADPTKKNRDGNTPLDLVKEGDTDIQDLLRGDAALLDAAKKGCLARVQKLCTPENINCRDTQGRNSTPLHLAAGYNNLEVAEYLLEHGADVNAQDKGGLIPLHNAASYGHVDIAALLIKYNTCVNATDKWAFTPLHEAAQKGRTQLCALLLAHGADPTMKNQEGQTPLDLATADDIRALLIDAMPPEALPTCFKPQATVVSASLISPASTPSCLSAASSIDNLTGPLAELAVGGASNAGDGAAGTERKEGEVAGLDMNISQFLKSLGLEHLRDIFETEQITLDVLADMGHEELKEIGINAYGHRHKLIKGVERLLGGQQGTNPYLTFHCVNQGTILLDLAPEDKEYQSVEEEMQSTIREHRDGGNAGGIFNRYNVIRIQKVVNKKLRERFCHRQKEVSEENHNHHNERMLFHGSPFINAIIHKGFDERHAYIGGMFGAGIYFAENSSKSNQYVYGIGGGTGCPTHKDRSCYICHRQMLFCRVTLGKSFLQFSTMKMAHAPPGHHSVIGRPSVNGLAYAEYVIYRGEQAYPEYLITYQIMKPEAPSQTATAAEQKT
Sequence of UniProt Q13148 (whole entry, looked up): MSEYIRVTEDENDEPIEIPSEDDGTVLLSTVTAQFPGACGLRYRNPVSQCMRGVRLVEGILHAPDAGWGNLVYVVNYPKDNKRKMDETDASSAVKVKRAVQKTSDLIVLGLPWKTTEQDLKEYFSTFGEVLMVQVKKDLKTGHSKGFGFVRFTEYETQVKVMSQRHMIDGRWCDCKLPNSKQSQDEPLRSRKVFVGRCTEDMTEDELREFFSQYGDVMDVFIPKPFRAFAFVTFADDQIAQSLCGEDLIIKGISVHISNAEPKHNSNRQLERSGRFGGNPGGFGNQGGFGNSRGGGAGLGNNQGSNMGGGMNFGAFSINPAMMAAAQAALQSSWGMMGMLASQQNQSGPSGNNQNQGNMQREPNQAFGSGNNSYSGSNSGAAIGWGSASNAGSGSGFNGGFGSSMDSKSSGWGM
Sequence of UniProt P50613 (whole entry, looked up): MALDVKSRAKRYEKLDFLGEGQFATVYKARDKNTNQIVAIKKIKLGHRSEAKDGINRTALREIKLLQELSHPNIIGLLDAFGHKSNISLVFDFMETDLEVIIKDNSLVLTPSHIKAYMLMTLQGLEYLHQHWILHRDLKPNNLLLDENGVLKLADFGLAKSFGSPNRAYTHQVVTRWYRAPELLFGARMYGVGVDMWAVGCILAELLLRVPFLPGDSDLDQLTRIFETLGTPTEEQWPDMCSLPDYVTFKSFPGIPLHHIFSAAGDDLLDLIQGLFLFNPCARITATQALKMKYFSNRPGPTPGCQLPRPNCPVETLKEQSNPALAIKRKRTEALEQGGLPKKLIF
Sequence of UniProt Q99873 (whole entry, looked up): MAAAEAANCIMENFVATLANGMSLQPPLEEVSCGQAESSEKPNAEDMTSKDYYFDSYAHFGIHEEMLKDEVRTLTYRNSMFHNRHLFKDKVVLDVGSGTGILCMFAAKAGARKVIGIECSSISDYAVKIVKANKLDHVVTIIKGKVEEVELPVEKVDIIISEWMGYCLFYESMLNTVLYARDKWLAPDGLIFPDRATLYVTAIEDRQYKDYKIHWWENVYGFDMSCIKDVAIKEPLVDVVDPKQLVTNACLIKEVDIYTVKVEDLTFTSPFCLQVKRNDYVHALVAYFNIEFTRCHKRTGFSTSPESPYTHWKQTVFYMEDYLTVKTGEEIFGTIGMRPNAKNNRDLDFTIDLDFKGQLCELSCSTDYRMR

SMILES	target	assay	test system	setting	how to read	inhibition
C#CCOC(=O)[C@]1(C)C=C(C(=O)OC(C)(C)C)C(=O)CC1	Cyclin-dependent kinase 7, with cyclin H, MAT1 (CDK7, Homo sapiens, UniProt P50613)	kinase activity, Kinase-Glo		10 µM		no inhibition
NC(=O)[C@@H](O)C[C@H]1CCc2sc3ncnc(O[C@H]4CC[C@H](N5CCOCC5)CC4)c3c21	RIPK3	enzyme activity, inhibitor		10 µM		-35%
NCc1ccc(CNC(=O)c2cc(-c3ccccc3)n(-c3ccccc3)n2)cc1	Genome polyprotein NS2B-NS3 protease	enzyme activity, fluorogenic AMC substrate		50 µM		18%
Cc1nc2c(F)cc(-c3nc(Nc4ccc(CNC(=O)CCCCCCC(=O)NO)cc4)ncc3F)cc2n1C(C)C	ATR (Homo sapiens, UniProt Q13535)	kinase activity		1 µM		0%
CC(C)C[C@H]1CNC(=O)N2C[C@H](C[C@H]2C(N)=O)NC(=O)CCNC(=N)NCCCCNC(=N)NCCCC[C@H](NC(=O)[C@H](Cc2ccccc2)NC(=O)[C@H](CO)NC(=O)[C@@H](N)[C@@H](C)O)C(=O)N[C@@H](CCC(=O)O)C(=O)N[C@@H](Cc2ccc(O)cc2)C(=O)N[C@@H](Cc2c[nH]c3ccccc23)C(=O)N[C@@H](C)C(=O)N[C@@H](CC(C)C)CNC(=O)N1	MDM2	protein-protein interaction, inhibitor, TR-FRET		0.1 µM		94%
CCn1cc(C(=O)O)c(=O)c2c(N)c(F)c(NC3CCCCC3)cc21	Cyclin-dependent kinase 12, with cyclin K (CDK12, Homo sapiens, UniProt Q9NYV4)	kinase activity		0.1 µM, added: ATP at Km		-13.7%
O=C(NC1CCC1)[C@H](Cc1c[nH]c2ccccc12)NC(=O)[C@H](CCCCNC(=S)NCCP(=O)(O)O)NS(=O)(=O)c1cccc(F)c1	SIRT5	enzyme activity, inhibitor		100 µM		18%
Cc1ccc(-n2nc(C(=O)Nc3cccc(C(N)=O)c3)cc2-c2ccc(CC(C)C)cc2)cc1	Genome polyprotein NS2B-NS3 protease	reporter gene	HeLa	12.5 µM		56%
C[Si](C)(C)C[C@H](CN)CC(=O)O	TACR2 (Homo sapiens, UniProt P21452)	ligand displacement, radioligand		250 µM		0%
CN(C)C/C=C/C(=O)Nc1ccc2nc(NCCCCCN(C)C)nc(NCCCCCCN(C)C)c2c1	PRMT1 (Homo sapiens, UniProt Q99873)	enzyme activity, inhibitor, radiometric		10 µM		93%
CCCCCCN(O)C(=O)CCCCC[C@@H]1NC(=O)[C@H]([C@@H](C)CC)NC(=O)[C@H](Cc2ccccc2C(F)(F)F)NC(=O)CCSCc2cccc(n2)CSCCCNC1=O	HDAC11	enzyme activity, inhibitor, fluorogenic		0.03 µM		35%
C/C1=C\CC/C(C)=C/CC(C)(C)/C=C/C1	SCN9A (Homo sapiens, UniProt Q15858)	ion current, inhibitor, whole-cell patch clamp	HEK293	100 µM, 5 min		5 ± 5%
COc1ccc(C#CC2=C[C@H]3C[C@@]4(OC(=O)C=C24)[C@H]2CC[C@H](C(OC)OC)N32)cc1	CNR2 (Homo sapiens, UniProt P34972)	ligand displacement, radioligand		10 µM		-12%
CN(C(=O)n1ccnn1)c1ccccc1	Apeh	serine hydrolase activity, inhibitor, competitive gel-based ABPP	mouse T-cell proteome	1 µM, 30 min, 37 °C		< 50%
CCCCCCCCCCCCCCCC(=O)N[C@@H](CCCCN)C(=O)N[C@@H](CCCCN)C(=O)N[C@@H](CO)C(=O)N[C@@H](CCCNC(=N)N)C(=O)N[C@@H](C)C(=O)N[C@@H](CC(C)C)C(=O)N[C@@H](Cc1ccccc1)C(N)=O	F2RL3 (Homo sapiens, UniProt Q96RI0)	platelet aggregation, ex vivo LTA	human	0.5 mg/kg, 24 h or discharge, added: AYPGKF 160 µM	reference: baseline	37%
C[Si]1(C[C@H](CN)CC(=O)O)CCCC1	VIPR1 (Homo sapiens, UniProt P32241)	ligand displacement, radioligand		70 µM		-3%
NC(=O)c1cccc(NC(=O)c2cc(-c3ccc4c(c3)OCCO4)n(-c3ccccc3)n2)c1	Genome polyprotein NS2B-NS3 protease	reporter gene	HeLa	12.5 µM		50%
N=C(N)NCCCC(NC(=O)C(CC(=O)NO)Cc1ccc2ccccc2c1)C(=O)NC(Cc1c[nH]c2ccccc12)C(=O)NC(CCC(=O)O)C(N)=O (stereo not shown)	Matrix metalloproteinase-24 (Homo sapiens, UniProt Q9Y5R2)			1 µM		46%
NC(=O)c1cccc(NC(=O)c2cc(-c3ccccc3)n(-c3ccccc3)n2)c1	Genome polyprotein NS2B-NS3 protease	reporter gene	HeLa	12.5 µM		59%
Cc1cc(C(=O)NCCNC(=O)c2cccc(COc3ccccc3C(N)=O)c2)n[nH]1	TNKS	enzyme activity, inhibitor		50 nM		100%
CN1CCN(Cc2ccc(-c3ccc(CO[C@H]4CCC[C@@H]4NC(=O)c4cc(-c5cnn(C)c5)cnc4N)cc3)cc2)CC1	KSR2 (Homo sapiens, UniProt Q6VAB6)	enzyme activity, inhibitor		0.1 µM		9%
CCCCCCCCCCCCCC(=S)NCCCC[C@H](NS(C)(=O)=O)C(=O)N[C@@H](C)C(=O)N[C@@H](CCCNC(=N)N)C(N)=O	SIRT5	enzyme activity, inhibitor		100 µM		< 5%

SMILES	target	assay	test system	setting	how to read	inhibition
CS(=O)(=O)Nc1cccc(-c2csc3cnc(Nc4ccc(N5CCN(CCCCCOc6cccc7c6C(=O)N(C6CCC(=O)NC6=O)C7=O)CC5)cc4)nc23)c1 (stereo not shown)	RIPK3	probe labelling, inhibitor, KiNativ chemoproteomics	MOLT-4	1 µM		-22%
O=C1c2sc(-c3ccc(N4CCC(F)C4)nc3F)nc2CCN1c1cccnc1 (stereo not shown)	TAR DNA-binding protein 43, aggregated (TARDBP, Homo sapiens, UniProt Q13148)	radioligand binding	homogenate, FTLD-TDP, type A	1000 nM, added: [3H]ACI-19626		82.9% and 87.1%
C=CC(=O)Nc1cccc(-c2cnc3[nH]cc(C(=O)NC(C)(C)C)c3n2)c1	DYRK3 (Homo sapiens, UniProt O43781)	enzyme activity, inhibitor		0.1 µM		2%
Cc1onc(-c2ccc(F)cc2)c1C(=O)Nc1cccc(C(N)=O)c1	Genome polyprotein NS2B-NS3 protease	enzyme activity, fluorogenic AMC substrate		50 µM		18%
CC(C)(C)c1ccc(OS(=O)(=O)Oc2cncc(C(=O)NO)c2)cc1	HDAC11			10 µM		39%
O=C1c2sc(-c3ccc(N4CCC(CO)CC4)nc3F)nc2CCN1c1cccnc1	NMDA receptor	radioligand binding		1 µM, added: antagonist radioligand		-2%
N#Cc1c(Nc2ccccc2C(F)(F)F)s[nH]c1=O	TNKS	enzyme activity, inhibitor		10 µM		20%
O=C(Nc1ccc(C(F)F)cc1)[C@H](CC1CCCCC1)Nc1nn2c(=O)ccnc2s1	Receptor-type tyrosine-protein phosphatase beta (Homo sapiens, UniProt P23467)	enzyme activity, inhibitor		10 µM		-2%
O=C(c1cc(-c2ccccc2)n(-c2ccccc2)n1)N1CCC(N2CCCC2)CC1	Genome polyprotein NS2B-NS3 protease	reporter gene	HeLa	12.5 µM		26%
Brc1ccccc1-c1nnc(CSc2nnnn2-c2ccccc2)o1	GABAA receptor	binding		10 µM		15%
CC(=O)C12NC(C)(C)CC1(C)C(=O)C1=C2c2c(c3c4n2C(C)(C)CC2=C4C4(CC(C)(C)NC(C)(C4)C2=O)CC3(C)C)C(=O)C(C)(C)N1 (single isomer, unassigned; (-))	KCNA2 (Homo sapiens, UniProt P16389)	ion current, inhibitor, patch clamp	HEK-293T	10 µM		77.9%
N#Cc1cc(NC(=O)c2cc(-c3ccccc3)n(-c3ccccc3)n2)ccc1N1CCC2(CC1)CNC2	Genome polyprotein NS2B-NS3 protease	enzyme activity, fluorogenic AMC substrate		50 µM		75%
O=C(n1ccnn1)n1c2ccccc2c2ccccc21	Apeh	serine hydrolase activity, inhibitor, competitive gel-based ABPP	mouse T-cell proteome	1 µM, 30 min, 37 °C		< 50%
COc1ccc2nc(C)ccc2c1Nc1sn(C)c(=O)c1C#N	SARM1 (Homo sapiens, UniProt Q6SZW1)	enzyme activity, inhibitor		10 µM		100%
Cc1cc(C(C)(C)C)ccc1OS(=O)(=O)Oc1cncc(C(=O)NO)c1	HDAC11			10 µM		18%
CC(=O)N[C@H](C(=O)N[C@@H](CO)C(=O)N[C@@H](Cc1ccccc1)C(=O)N[C@H]1CCCCNC(=N)NCCCCNC(=N)NCCCC[C@@H](C(=O)N2CCC[C@H]2C(N)=O)NC(=O)[C@H](CC(C)C)NC(=O)[C@H](CC(C)C)NC(=O)[C@H](C)NC(=O)[C@H](Cc2c[nH]c3ccccc23)NC(=O)[C@H](Cc2ccc(O)cc2)NC(=O)[C@H](CCC(=O)O)NC1=O)[C@@H](C)O	MDM2	protein-protein interaction, inhibitor, TR-FRET		0.1 µM		≥ 90%
N=C(N)NCc1cccc(CNC(=O)c2cc(-c3ccccc3)n(-c3ccccc3)n2)c1	Genome polyprotein NS2B-NS3 protease	reporter gene	HeLa	12.5 µM		19%
O=C(CCCc1ccc2c(c1)OCCO2)NCCNC(=O)Cn1c(=O)[nH]c(=O)c2ccccc21	TNKS	enzyme activity, inhibitor		0.104 µM		47%
C/C=C/C(=O)Nc1ccc2nc(NCCCCCN(C)C)nc(NCCCCCCN(C)C)c2c1	BCDIN3D (Homo sapiens, UniProt Q7Z5W3)	enzyme activity, inhibitor, radiometric		50 µM		71%
CCn1cc(-c2cccc(C(F)(F)F)c2)c2sc(C(=N)NC3CCS(=O)(=O)CC3)cc2c1=O	PHIP, BD2 (Homo sapiens, UniProt Q8WWQ0)			1 µM		1.8%
O=C(NO)c1cccc(OS(=O)(=O)Oc2ccc(N3CCOCC3)cc2)c1	HDAC11			10 µM		47%

Some of these lines once more:
SMILES	target	assay	test system	setting	how to read	inhibition
C/C1=C\CC/C(C)=C/CC(C)(C)/C=C/C1	SCN9A (Homo sapiens, UniProt Q15858)	ion current, inhibitor, whole-cell patch clamp	HEK293	100 µM, 5 min		5 ± 5%
COc1ccc(C#CC2=C[C@H]3C[C@@]4(OC(=O)C=C24)[C@H]2CC[C@H](C(OC)OC)N32)cc1	CNR2 (Homo sapiens, UniProt P34972)	ligand displacement, radioligand		10 µM		-12%
CN(C(=O)n1ccnn1)c1ccccc1	Apeh	serine hydrolase activity, inhibitor, competitive gel-based ABPP	mouse T-cell proteome	1 µM, 30 min, 37 °C		< 50%
CCCCCCCCCCCCCCCC(=O)N[C@@H](CCCCN)C(=O)N[C@@H](CCCCN)C(=O)N[C@@H](CO)C(=O)N[C@@H](CCCNC(=N)N)C(=O)N[C@@H](C)C(=O)N[C@@H](CC(C)C)C(=O)N[C@@H](Cc1ccccc1)C(N)=O	F2RL3 (Homo sapiens, UniProt Q96RI0)	platelet aggregation, ex vivo LTA	human	0.5 mg/kg, 24 h or discharge, added: AYPGKF 160 µM	reference: baseline	37%
C[Si]1(C[C@H](CN)CC(=O)O)CCCC1	VIPR1 (Homo sapiens, UniProt P32241)	ligand displacement, radioligand		70 µM		-3%
